Results of several laboratories.
Each line is one published result; not all experiments were run side by side.
Organism: Pseudomonas aeruginosa

For `COc1ccc2ccc3c(c2c1)C=[N+]1C2CCCCC2[N+]2=Cc4cc(C(C)(C)C)ccc4[O][Au-]21[O]3.F[P-](F)(F)(F)(F)F` (stereo not shown), the MIC was 10 µM (bacterial growth, broth microdilution; carbapenem-resistant clinical isolate; 24 h).
With `CCn1[c]([Au-]([Cl])([Cl])[Cl])[n+](CC)c2ccc(C(=O)OC)cc21` the MIC was 59.8 µM (broth dilution; PA7 DSM 24068; 20 h, 37 °C).
The MIC of `O=[N+]([O-])c1cccc(S(=O)(=O)NC[C@@H](O)[C@@H]2CCc3cc(F)ccc3O2)c1` is reported as 18.5 µg/mL (microbial growth).
The MIC of `COc1ccc2c(c1CC=C(C)C)O[C@H]1c3cc(CC=C(C)C)c(O)cc3OC[C@@H]21` is reported as 128 µg/mL (ATCC 10145).
`CC(=O)N[C@H](CCCCN)C(=O)N[C@H](CC(C)C)C(=O)N[C@H](CCCCN)C(=O)N[C@H](CO)C(=O)N[C@H](CC(C)C)C(=O)N[C@H](CC(C)C)C(=O)N[C@H](CCCCN)C(=O)N[C@@H](C(=O)N[C@H](CC(C)C)C(=O)N[C@H](CO)C(=O)N[C@H](CCCCN)C(=O)N[C@H](C)C(=O)N[C@H](CCCCN)C(=O)N[C@H](CCCCN)C(=O)N[C@H](CCCCN)C(=O)N[C@H](CC(C)C)C(=O)N[C@H](CC(C)C)C(=O)N[C@H](CCCCN)C(=O)N[C@@H](C(=O)N[C@H](C)C(=O)N[C@H](CC(C)C)C(=O)N[C@H](CCCCN)C(=O)N[C@H](C)C(=O)N[C@H](CC(C)C)C(=O)N[C@H](CO)C(=O)N[C@H](CCCCN)C(N)=O)[C@H](C)O)[C@H](C)O` has an MIC of 1.3 µM (broth microdilution; PAO1; 24 h, 37 °C).
The MIC of `COc1ccc(-c2ccn(CC[C@](C)(C(=O)NO)S(C)(=O)=O)c(=O)c2)c(F)c1` is reported as 0.5 µg/mL (microbial growth; PAO1).
`COc1cc(OC)c2c(c1)C(=O)c1cc3oc(=O)cc(-c4ccc(Cl)cc4)c3c(O)c1C2=O` has an MIC of 64 µg/mL (microbial growth).
For `CC(C)C[C@@H](NC(=O)[C@@H](CCCCN)NC(=O)[C@@H](CCCCNC(=O)[C@@H](CC(C)C)NC(=O)[C@@H](CCCCN)NC(=O)[C@@H](CCCCNC(=O)[C@@H](CC(C)C)NC(=O)[C@@H](CCCCN)NC(=O)[C@@H](CCCCNC(=O)[C@@H](CC(C)C)NC(=O)[C@H](N)CCCCN)NC(=O)[C@@H](CC(C)C)NC(=O)[C@H](N)CCCCN)NC(=O)[C@@H](CC(C)C)NC(=O)[C@@H](CCCCN)NC(=O)[C@@H](CCCCNC(=O)[C@@H](CC(C)C)NC(=O)[C@H](N)CCCCN)NC(=O)[C@@H](CC(C)C)NC(=O)[C@H](N)CCCCN)NC(=O)[C@@H](CC(C)C)NC(=O)[C@@H](CCCCN)NC(=O)[C@@H](CCCCNC(=O)[C@@H](CC(C)C)NC(=O)[C@@H](CCCCN)NC(=O)[C@@H](CCCCNC(=O)[C@@H](CC(C)C)NC(=O)[C@H](N)CCCCN)NC(=O)[C@@H](CC(C)C)NC(=O)[C@H](N)CCCCN)NC(=O)[C@@H](CC(C)C)NC(=O)[C@@H](CCCCN)NC(=O)[C@@H](CCCCNC(=O)[C@@H](CC(C)C)NC(=O)[C@H](N)CCCCN)NC(=O)[C@@H](CC(C)C)NC(=O)[C@H](N)CCCCN)C(N)=O`, the MIC was 4 µg/mL (broth microdilution; PAO1; 37 °C).
`CC[C@@H](C)[C@@H](NC(=O)[C@@H](C)NC(=O)[C@@H](CCCCN)NC(=O)[C@@H](CC(C)C)NC(=O)[C@@H](C)NC(=O)[C@H](NC(=O)[C@@H](Cc1c[nH]cn1)NC(=O)[C@@H](CC(C)C)NC(=O)[C@H](NC(=O)[C@H](NC(=O)[C@@H](CCCCN)NC(=O)[C@H](NC(=O)[C@@H](C)NC(=O)[C@@H](CO)NC(=O)[C@@H](CCCCN)NC(=O)[C@@H](Cc1ccccc1)NC(=O)[C@H](NC(=O)[C@@H](CCCCN)NC(=O)[C@@H](CC(C)C)NC(=O)[C@@H](Cc1ccccc1)NC(=O)[C@@H](CO)NC(=O)[C@@H](CCCCN)NC(=O)[C@@H](Cc1c[nH]c2ccccc12)NC(=O)[C@@H](CCCCN)NC(C)=O)[C@H](C)O)C(C)C)[C@H](C)O)C(C)C)[C@H](C)O)C(=O)N[C@H](CO)C(=O)N[C@H](CO)C(N)=O` gave an MIC of 1.3 µM (broth microdilution; PAO1; 24 h, 37 °C).
For `COc1ccc2ccc3c(c2c1)C=[N+]1C2CCCCC2[N+]2=Cc4ccc(F)cc4[O][Au-]21[O]3.F[P-](F)(F)(F)(F)F` (stereo not shown), the MIC was 10 µM (bacterial growth, broth microdilution; carbapenem-resistant; 24 h).

For quick reference, copied from above:
The MIC of `COc1ccc2c(c1CC=C(C)C)O[C@H]1c3cc(CC=C(C)C)c(O)cc3OC[C@@H]21` is reported as 128 µg/mL (ATCC 10145).
For `CC(C)C[C@@H](NC(=O)[C@@H](CCCCN)NC(=O)[C@@H](CCCCNC(=O)[C@@H](CC(C)C)NC(=O)[C@@H](CCCCN)NC(=O)[C@@H](CCCCNC(=O)[C@@H](CC(C)C)NC(=O)[C@@H](CCCCN)NC(=O)[C@@H](CCCCNC(=O)[C@@H](CC(C)C)NC(=O)[C@H](N)CCCCN)NC(=O)[C@@H](CC(C)C)NC(=O)[C@H](N)CCCCN)NC(=O)[C@@H](CC(C)C)NC(=O)[C@@H](CCCCN)NC(=O)[C@@H](CCCCNC(=O)[C@@H](CC(C)C)NC(=O)[C@H](N)CCCCN)NC(=O)[C@@H](CC(C)C)NC(=O)[C@H](N)CCCCN)NC(=O)[C@@H](CC(C)C)NC(=O)[C@@H](CCCCN)NC(=O)[C@@H](CCCCNC(=O)[C@@H](CC(C)C)NC(=O)[C@@H](CCCCN)NC(=O)[C@@H](CCCCNC(=O)[C@@H](CC(C)C)NC(=O)[C@H](N)CCCCN)NC(=O)[C@@H](CC(C)C)NC(=O)[C@H](N)CCCCN)NC(=O)[C@@H](CC(C)C)NC(=O)[C@@H](CCCCN)NC(=O)[C@@H](CCCCNC(=O)[C@@H](CC(C)C)NC(=O)[C@H](N)CCCCN)NC(=O)[C@@H](CC(C)C)NC(=O)[C@H](N)CCCCN)C(N)=O`, the MIC was 4 µg/mL (broth microdilution; PAO1; 37 °C).
